Published values from different studies.
Every numbered part comes from another study and shows a few of its results, in no order.
Sequence of UniProt Q6ZN16 (whole entry, looked up): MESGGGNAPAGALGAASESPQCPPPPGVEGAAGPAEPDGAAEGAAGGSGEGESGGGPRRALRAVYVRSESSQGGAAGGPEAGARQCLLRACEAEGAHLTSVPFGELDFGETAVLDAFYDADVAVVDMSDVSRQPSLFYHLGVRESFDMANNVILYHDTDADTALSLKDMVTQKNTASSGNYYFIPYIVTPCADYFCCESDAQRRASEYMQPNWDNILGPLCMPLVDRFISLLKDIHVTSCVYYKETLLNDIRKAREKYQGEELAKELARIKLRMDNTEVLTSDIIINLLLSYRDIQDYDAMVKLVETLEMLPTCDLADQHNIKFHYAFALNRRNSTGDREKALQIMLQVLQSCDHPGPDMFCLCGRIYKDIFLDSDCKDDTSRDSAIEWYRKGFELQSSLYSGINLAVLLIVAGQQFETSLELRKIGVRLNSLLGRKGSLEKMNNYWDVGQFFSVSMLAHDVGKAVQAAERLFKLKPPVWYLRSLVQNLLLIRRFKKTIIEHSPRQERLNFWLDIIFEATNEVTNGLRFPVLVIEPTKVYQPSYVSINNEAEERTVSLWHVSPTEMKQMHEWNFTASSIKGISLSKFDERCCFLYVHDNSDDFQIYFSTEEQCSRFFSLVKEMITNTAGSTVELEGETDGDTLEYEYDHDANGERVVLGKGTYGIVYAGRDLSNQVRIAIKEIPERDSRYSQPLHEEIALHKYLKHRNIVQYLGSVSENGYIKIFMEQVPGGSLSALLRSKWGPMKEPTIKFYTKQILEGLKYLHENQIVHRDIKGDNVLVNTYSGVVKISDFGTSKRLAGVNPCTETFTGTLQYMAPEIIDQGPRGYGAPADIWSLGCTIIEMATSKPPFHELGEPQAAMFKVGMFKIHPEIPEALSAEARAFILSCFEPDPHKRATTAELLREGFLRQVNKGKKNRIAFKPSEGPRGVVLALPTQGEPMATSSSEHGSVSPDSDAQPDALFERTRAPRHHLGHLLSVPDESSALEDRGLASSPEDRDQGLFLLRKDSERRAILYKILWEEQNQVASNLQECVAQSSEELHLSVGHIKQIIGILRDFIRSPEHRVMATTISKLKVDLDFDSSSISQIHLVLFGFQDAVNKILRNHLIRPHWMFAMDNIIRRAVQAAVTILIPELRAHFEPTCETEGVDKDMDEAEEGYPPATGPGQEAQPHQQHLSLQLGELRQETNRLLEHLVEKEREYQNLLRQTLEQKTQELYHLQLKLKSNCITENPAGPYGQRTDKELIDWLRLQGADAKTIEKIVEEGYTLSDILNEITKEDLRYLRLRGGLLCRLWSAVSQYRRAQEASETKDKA
Sequence of UniProt Q9P2K8 (whole entry, unmodified, looked up): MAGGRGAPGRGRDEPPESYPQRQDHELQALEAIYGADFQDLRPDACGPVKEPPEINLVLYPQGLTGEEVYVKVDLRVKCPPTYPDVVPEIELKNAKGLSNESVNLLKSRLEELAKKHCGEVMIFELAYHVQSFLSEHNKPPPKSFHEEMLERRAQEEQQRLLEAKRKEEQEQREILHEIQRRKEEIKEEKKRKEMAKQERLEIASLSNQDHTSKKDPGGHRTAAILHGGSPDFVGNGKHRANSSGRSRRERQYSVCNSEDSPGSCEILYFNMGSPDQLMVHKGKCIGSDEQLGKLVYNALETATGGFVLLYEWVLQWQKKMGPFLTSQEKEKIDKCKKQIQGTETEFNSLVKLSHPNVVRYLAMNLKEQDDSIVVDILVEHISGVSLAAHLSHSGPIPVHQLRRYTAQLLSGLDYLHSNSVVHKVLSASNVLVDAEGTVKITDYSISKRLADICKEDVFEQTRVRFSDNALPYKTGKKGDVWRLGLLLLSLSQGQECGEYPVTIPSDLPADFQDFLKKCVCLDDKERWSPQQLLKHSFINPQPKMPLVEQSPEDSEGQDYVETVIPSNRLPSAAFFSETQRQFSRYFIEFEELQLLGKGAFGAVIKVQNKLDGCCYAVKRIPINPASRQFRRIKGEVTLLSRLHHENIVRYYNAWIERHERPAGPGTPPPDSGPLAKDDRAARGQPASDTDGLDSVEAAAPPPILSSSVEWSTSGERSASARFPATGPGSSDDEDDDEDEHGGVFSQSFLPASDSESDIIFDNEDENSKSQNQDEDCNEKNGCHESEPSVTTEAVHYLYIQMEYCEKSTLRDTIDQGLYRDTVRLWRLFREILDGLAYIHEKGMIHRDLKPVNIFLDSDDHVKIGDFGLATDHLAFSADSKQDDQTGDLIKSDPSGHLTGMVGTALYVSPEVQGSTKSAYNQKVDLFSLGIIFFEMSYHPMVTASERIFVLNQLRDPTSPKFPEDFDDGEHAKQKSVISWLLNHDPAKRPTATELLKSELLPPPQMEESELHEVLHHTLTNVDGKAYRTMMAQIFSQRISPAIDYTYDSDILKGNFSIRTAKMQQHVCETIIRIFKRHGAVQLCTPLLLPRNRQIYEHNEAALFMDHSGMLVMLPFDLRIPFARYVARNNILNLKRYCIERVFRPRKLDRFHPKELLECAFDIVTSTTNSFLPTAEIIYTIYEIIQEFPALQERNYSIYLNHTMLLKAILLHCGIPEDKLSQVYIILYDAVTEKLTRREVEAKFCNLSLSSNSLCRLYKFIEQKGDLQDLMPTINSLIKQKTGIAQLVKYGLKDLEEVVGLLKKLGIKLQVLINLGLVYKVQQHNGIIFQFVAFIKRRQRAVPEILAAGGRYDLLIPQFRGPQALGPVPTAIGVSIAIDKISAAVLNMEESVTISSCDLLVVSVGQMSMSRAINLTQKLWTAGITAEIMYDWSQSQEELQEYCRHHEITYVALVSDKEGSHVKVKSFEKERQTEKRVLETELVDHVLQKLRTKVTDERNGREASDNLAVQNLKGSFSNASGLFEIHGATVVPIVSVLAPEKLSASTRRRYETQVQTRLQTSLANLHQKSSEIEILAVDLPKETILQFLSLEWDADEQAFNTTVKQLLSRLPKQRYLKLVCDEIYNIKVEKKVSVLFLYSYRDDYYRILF
Sequence of UniProt O15146 (whole entry, looked up): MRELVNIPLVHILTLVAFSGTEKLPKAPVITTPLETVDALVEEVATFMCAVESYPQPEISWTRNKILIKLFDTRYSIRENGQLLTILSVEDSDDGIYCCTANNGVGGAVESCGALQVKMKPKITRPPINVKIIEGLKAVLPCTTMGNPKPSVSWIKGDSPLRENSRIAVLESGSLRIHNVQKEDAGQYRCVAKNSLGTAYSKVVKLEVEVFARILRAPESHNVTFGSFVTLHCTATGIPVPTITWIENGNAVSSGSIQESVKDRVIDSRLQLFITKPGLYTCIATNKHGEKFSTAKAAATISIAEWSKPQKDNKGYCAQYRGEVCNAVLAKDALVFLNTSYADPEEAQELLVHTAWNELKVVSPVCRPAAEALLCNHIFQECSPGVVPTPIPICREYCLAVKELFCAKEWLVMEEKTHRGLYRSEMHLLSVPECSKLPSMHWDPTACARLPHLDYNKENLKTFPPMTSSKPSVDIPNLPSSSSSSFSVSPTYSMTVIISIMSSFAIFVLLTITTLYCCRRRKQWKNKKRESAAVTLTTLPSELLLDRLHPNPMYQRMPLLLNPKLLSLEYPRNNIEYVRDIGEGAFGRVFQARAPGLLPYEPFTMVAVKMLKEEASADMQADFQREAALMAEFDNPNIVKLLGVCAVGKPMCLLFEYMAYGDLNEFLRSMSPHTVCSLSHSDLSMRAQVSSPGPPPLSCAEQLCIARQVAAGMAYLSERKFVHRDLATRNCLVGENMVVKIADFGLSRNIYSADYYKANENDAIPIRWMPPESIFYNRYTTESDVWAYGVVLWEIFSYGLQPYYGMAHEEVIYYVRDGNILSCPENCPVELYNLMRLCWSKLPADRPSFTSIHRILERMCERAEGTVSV
Sequence of UniProt Q6P2M8 (whole entry, looked up): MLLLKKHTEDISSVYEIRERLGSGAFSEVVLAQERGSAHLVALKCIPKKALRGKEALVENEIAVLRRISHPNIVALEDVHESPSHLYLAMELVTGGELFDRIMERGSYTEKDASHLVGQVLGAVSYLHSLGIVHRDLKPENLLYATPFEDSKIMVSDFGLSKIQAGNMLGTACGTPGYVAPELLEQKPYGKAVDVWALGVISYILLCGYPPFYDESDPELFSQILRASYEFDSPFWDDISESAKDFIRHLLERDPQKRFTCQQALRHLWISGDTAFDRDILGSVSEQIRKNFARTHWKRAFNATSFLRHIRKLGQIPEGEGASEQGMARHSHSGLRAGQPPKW
Sequence of UniProt Q96Q40 (whole entry, looked up): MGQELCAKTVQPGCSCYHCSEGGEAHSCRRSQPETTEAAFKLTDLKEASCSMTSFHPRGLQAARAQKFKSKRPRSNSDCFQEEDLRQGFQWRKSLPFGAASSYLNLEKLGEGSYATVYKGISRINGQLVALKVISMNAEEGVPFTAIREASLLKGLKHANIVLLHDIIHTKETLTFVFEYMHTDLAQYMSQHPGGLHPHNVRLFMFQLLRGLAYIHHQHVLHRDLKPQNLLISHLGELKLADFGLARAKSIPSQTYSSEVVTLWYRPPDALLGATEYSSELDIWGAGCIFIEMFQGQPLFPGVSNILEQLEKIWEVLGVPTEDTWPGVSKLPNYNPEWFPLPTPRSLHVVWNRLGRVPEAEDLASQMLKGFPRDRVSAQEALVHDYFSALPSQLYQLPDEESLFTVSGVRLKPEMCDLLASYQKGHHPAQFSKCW

Sample 1
Compound: COc1cc(C(=O)N2CCC(N3CCN(C)CC3)CC2)ccc1Nc1ncc2c(n1)N(C)c1ccccc1C(=O)N2C
| tested on | test | system | conditions | inhibition [%] |
| --- | --- | --- | --- | --- |
| ZC1/HGK (mouse) | probe labelling, KiNativ, refers to: LYS1 site peptide | brain tissue lysate (mouse) | 1 µM, with: ATP acyl-phosphate probe | 0.4 |
| ACK (mouse) | probe labelling, KiNativ, refers to: Lys1 site peptide | brain tissue lysate (mouse) | 0.1 µM, with: ATP acyl-phosphate probe | -10.2 |
| ZAP70 human | KiNativ profiling | human PBMC | 0.1 µM, DFG motif site, with: ATP acyl phosphate probe | 8.8 |
| NEK9 (mouse) | probe labelling, KiNativ ADP probe | mouse brain lysate | 0.1 µM, LYS1 labelled site | -9.9 |
| CSK (human) | probe labelling, KiNativ ADP probe | human PBMC lysate | concentration not given, LYS1 labelled site | 3.9 |
| TBK1 mouse | KiNativ profiling | mouse brain lysate | 0.1 µM, LYS1 site, with: ADP acyl phosphate probe | 0 |
| human PBMC | probe labeling, inhibitor, KiNativ profiling, refers to: VKELPTLkDMDFLNK | cell lysate | concentration not given, ATP site, with: ATP acyl-phosphate probe 0.1 µM | 17 |

Sample 2
Target: Calcium/calmodulin-dependent protein kinase type II subunit alpha (CAMK2A, Homo sapiens, UniProt Q9UQM7)
Sequence of UniProt Q9UQM7 (whole entry, looked up): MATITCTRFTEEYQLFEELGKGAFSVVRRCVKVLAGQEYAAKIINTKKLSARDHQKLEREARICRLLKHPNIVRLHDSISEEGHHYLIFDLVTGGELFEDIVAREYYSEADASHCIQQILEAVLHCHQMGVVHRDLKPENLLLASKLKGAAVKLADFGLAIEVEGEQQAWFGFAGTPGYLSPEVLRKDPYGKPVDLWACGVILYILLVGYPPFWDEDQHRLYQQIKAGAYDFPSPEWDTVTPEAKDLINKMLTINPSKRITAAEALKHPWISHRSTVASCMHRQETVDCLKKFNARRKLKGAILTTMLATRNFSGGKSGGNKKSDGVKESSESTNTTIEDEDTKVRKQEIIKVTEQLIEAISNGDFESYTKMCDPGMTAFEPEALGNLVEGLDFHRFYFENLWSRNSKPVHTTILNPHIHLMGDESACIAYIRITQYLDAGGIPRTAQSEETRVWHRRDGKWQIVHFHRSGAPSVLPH
Observed: enzyme activity
Mode: inhibitor
Concentration: 10 µM
| SMILES | inhibition [%] |
| --- | --- |
| C=C(C)[C@@H]1CC[C@]2(COC(C)=O)CC[C@]3(C)[C@H](CC[C@@H]4[C@@]5(C)CC[C@H](OC(C)=O)C(C)(C)[C@@H]5CC[C@]43C)[C@@H]12 | -5 |
| Cc1cc(C)nc(NS(=O)(=O)c2ccc(N)cc2)n1 | -3 |
| CC(C(=O)O)c1ccc(C(=O)c2cccs2)cc1 (centres unmarked) | -4 |
| Nc1nc(CC(=O)Nc2ccc(CCNC[C@H](O)c3ccccc3)cc2)cs1 | -6 |
| CC(=O)OCC1=C(C(=O)O)N2C(=O)[C@@H](NC(=O)CSC(=NC(C)C)NC(C)C)[C@H]2SC1 | 0 |
| COc1ccc(OC)c(C(O)CNC(=O)CN)c1 (centres unmarked) | -9 |
| CN1CCC[C@H]1C(=O)O | 4 |

Sample 3
Compound: C[C@@H]1CN(c2cc(-c3n[nH]c4ccc(OC5(C)CC5)cc34)ncn2)C[C@H](C)O1
Observed: cell-free assay
Technique: competition with immobilised ligand
Concentration: 0.1 µM
| target | remaining binding [%] |
| --- | --- |
| MUSK (Homo sapiens, UniProt O15146) | 56 |
| DDR1 (Homo sapiens, UniProt Q08345) | 91 |
| eIF-2-alpha kinase GCN2, C-terminal kinase domain (EIF2AK4, Homo sapiens, UniProt Q9P2K8, S808G) | 81 |
| MET (Homo sapiens, UniProt P08581) | 100 |
| CDK15 (Homo sapiens, UniProt Q96Q40) | 100 |
| PIK3CA (Homo sapiens, UniProt P42336, E542K) | 81 |
| MAP3K15 (Homo sapiens, UniProt Q6ZN16) | 67 |
| TSSK1B (Homo sapiens, UniProt Q9BXA7) | 72 |
| EGFR (Homo sapiens, UniProt P00533) | 76 |

Sample 4
Structure (SMILES): FC(F)(F)c1ccc(/C=C/c2nc(COc3ccc(CCCCn4ccnn4)cc3)co2)cc1
Observed: enzyme activity
Mode: inhibitor
Concentration: 0.5 µM
Reference: control
| target | remaining activity [%] |
| --- | --- |
| TLK2 (Homo sapiens, UniProt Q86UE8) | 98.6 |
| MARK2 (Homo sapiens, UniProt Q7KZI7) | 105 |
| Myosin-IIIb (MYO3B, Homo sapiens, UniProt Q8WXR4) | 93.7 |
| TXK (Homo sapiens, UniProt P42681) | 101 |
| PLK3 (Homo sapiens, UniProt Q9H4B4) | 107 |
| DDR2 (Homo sapiens, UniProt Q16832) | 101 |
| MAPK1 (Homo sapiens, UniProt P28482) | 88.6 |
| PNCK (Homo sapiens, UniProt Q6P2M8) | 96.6 |
| MAPK11 (Homo sapiens, UniProt Q15759) | 102 |
| CAMK4 (Homo sapiens, UniProt Q16566) | 97.7 |
| AKT2 (Homo sapiens, UniProt P31751) | 99.9 |
| KDR (Homo sapiens, UniProt P35968) | 106 |
| CLK3 (Homo sapiens, UniProt P49761) | 92.2 |
| MARK4 (Homo sapiens, UniProt Q96L34) | 97.9 |
| MAPK14 (Homo sapiens, UniProt Q16539) | 103 |

Excerpt of the above (sample 1):
| tested on | test | system | conditions | inhibition [%] |
| --- | --- | --- | --- | --- |
| TBK1 mouse | KiNativ profiling | mouse brain lysate | 0.1 µM, LYS1 site, with: ADP acyl phosphate probe | 0 |
| human PBMC | probe labeling, inhibitor, KiNativ profiling, refers to: VKELPTLkDMDFLNK | cell lysate | concentration not given, ATP site, with: ATP acyl-phosphate probe 0.1 µM | 17 |
| ZAP70 human | KiNativ profiling | human PBMC | 0.1 µM, DFG motif site, with: ATP acyl phosphate probe | 8.8 |
| ACK (mouse) | probe labelling, KiNativ, refers to: Lys1 site peptide | brain tissue lysate (mouse) | 0.1 µM, with: ATP acyl-phosphate probe | -10.2 |
| CSK (human) | probe labelling, KiNativ ADP probe | human PBMC lysate | concentration not given, LYS1 labelled site | 3.9 |
| ZC1/HGK (mouse) | probe labelling, KiNativ, refers to: LYS1 site peptide | brain tissue lysate (mouse) | 1 µM, with: ATP acyl-phosphate probe | 0.4 |
